Published values of several laboratories.
Protocols differ between the studies behind these lines. ± gives the spread as reported.
histidine kinase ComD: histidine kinase ComD (Streptococcus pneumoniae serotype 4, UniProt A0A0H2US84)
Chain of UniProt P08482 (whole entry, looked up): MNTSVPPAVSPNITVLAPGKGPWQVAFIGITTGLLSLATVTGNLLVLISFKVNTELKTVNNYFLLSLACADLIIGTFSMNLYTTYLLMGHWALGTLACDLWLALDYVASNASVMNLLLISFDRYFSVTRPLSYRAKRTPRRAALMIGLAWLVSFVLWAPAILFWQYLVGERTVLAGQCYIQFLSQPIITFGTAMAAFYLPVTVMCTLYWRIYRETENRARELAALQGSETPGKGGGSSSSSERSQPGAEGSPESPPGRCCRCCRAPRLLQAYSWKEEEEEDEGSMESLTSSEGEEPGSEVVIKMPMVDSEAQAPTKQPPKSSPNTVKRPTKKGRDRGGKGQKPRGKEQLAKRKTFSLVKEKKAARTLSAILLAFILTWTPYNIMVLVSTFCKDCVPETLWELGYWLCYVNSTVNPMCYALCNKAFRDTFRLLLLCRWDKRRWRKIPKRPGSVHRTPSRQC
Chain of UniProt Q9NSD7 (whole entry, looked up): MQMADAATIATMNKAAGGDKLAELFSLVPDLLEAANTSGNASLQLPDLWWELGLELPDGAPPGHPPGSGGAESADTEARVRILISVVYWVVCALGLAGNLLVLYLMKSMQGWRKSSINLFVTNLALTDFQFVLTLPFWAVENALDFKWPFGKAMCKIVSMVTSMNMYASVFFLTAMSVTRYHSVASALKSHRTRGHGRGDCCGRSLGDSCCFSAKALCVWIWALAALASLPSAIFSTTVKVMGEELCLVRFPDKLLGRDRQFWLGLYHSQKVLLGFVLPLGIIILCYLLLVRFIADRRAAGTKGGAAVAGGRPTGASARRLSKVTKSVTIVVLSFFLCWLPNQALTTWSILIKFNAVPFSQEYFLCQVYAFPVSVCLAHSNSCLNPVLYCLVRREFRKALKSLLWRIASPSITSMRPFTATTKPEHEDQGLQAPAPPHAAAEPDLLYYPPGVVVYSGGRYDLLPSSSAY
Chain of UniProt A7T1N0 (whole entry, unmodified, looked up): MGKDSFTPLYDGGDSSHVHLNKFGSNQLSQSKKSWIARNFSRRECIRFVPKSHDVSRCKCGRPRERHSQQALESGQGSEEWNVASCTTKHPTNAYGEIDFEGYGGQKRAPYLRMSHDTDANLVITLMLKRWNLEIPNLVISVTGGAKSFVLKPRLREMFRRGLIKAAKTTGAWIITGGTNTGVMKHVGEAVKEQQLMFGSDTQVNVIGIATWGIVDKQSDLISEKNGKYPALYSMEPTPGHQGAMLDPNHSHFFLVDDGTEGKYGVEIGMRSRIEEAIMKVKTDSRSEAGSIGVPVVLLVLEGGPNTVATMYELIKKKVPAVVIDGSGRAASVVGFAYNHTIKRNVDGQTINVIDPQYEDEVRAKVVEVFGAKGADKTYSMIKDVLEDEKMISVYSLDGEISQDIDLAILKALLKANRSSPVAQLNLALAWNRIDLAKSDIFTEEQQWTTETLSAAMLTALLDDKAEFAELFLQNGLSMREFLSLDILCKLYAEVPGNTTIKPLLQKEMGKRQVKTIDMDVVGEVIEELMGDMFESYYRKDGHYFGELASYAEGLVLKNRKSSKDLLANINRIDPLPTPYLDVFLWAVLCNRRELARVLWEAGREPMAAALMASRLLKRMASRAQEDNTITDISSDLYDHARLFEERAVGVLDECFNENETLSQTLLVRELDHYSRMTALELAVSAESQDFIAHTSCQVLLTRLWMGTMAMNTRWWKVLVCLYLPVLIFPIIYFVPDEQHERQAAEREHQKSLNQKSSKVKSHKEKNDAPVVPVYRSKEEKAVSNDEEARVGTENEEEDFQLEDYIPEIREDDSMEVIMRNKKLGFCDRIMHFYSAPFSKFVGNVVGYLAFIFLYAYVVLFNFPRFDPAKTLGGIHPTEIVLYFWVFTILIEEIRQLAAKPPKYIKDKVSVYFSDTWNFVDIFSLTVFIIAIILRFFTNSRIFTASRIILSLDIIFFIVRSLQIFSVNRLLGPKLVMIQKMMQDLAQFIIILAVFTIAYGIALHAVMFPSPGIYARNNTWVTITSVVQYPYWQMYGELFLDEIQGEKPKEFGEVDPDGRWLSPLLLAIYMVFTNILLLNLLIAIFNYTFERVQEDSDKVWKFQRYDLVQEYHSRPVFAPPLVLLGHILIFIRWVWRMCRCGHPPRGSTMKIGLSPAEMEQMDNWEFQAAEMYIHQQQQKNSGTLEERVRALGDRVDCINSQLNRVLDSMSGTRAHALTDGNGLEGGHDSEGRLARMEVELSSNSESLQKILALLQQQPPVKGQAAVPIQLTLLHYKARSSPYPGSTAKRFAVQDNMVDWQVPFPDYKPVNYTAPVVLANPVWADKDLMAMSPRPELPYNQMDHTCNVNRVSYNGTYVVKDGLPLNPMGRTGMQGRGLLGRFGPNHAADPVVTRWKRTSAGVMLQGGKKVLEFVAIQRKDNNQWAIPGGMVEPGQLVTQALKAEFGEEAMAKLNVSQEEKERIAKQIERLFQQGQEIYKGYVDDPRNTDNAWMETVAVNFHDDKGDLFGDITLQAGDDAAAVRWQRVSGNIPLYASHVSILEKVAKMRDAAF
Chain of UniProt P35462 (whole entry, looked up): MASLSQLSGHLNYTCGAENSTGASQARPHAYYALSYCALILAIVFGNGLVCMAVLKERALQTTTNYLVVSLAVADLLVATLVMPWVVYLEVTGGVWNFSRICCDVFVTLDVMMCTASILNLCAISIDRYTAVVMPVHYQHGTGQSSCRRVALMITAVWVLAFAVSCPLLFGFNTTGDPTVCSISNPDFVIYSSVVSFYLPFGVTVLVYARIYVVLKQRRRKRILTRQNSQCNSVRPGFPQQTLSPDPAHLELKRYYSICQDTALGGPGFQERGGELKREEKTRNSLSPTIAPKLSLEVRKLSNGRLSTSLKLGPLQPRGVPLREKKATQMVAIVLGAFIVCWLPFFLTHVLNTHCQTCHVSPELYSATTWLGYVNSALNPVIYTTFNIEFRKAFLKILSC
Chain of UniProt P33533 (whole entry, looked up): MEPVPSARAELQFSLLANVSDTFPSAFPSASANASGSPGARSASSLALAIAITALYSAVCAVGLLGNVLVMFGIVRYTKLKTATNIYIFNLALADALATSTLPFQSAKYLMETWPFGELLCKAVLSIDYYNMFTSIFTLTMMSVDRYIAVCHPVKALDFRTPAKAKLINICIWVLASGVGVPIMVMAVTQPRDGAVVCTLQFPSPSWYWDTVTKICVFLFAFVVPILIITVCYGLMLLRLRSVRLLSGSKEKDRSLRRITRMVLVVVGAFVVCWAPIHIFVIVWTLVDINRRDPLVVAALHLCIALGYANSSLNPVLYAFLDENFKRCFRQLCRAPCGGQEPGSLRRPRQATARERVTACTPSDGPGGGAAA
Chain of UniProt P43220 (whole entry, looked up): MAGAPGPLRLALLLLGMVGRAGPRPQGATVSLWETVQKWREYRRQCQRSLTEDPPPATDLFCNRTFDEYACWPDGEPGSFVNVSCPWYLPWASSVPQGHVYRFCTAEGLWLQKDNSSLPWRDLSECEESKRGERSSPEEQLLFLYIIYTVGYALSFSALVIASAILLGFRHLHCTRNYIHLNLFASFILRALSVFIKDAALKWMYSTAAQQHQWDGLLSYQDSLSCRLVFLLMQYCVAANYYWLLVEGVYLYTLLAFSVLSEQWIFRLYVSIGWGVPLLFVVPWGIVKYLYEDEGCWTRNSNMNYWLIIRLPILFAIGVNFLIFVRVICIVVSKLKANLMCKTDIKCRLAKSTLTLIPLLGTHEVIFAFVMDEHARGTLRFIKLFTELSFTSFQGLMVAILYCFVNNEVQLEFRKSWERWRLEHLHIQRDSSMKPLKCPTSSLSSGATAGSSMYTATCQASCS

Compound = Nc1ncnc2c1ncn2C1OC(COP(=O)(O)OP(=O)(O)OCC2OC(O)C(O)C2O)C(O)C1O (centres unmarked); target or system = TRPM2 (Nematostella vectensis, UniProt A7T1N0, T179A); test = channel activation, agonist, inside-out patch clamp; setting = T179A, 2.5 µM PIP2, added: 125 µM Ca2+; quantity = EC50; value = 14000 ± 1000 nM
Compound = CC[C@H](C)[C@H](NC(=O)[C@H](Cc1ccccc1)NC(=O)[C@@H]1CCCNC(=O)NCCC[C@H](NC(=O)[C@H](CO)NC(=O)[C@H](CC(C)C)NC(=O)[C@H](CCCNC(=N)N)NC(=O)[C@H](CCSC)NC(=O)[C@H](C)N)C(=O)N[C@@H](Cc2ccccc2)C(=O)N[C@@H](Cc2ccccc2)C(=O)N[C@@H](CCCNC(=N)N)C(=O)N1)C(=O)N[C@@H](CC(C)C)C(=O)N[C@@H](CCC(N)=O)C(=O)N[C@@H](CCCNC(=N)N)C(=O)N[C@@H](CCCCN)C(=O)N[C@@H](CCCCN)C(=O)O; target or system = histidine kinase ComD; system = Streptococcus pneumoniae; quantity = EC50; value = > 1000 nM
Compound = CC(N)CCc1ccccc1Cl (racemic); target or system = DRD3 (Homo sapiens, UniProt P35462); test = β-arrestin recruitment, agonist; quantity = EC50; value = 14400 nM
Compound = CN[C@](C)(C[18F])C(=O)O; target or system = DU-145 tumour model; system = host not given, kidney; setting = 1 h, tumour-bearing; quantity = tracer uptake; value = 6.4 %ID/g
Compound = CC[C@H](C)[C@H](NC(=O)[C@H](Cc1ccccc1)NC(=O)[C@H](CCC(=O)O)NC(=O)[C@H](CCCCN)NC(=O)[C@H](C)NC(=O)[C@H](C)NC(=O)[C@H](CCC(N)=O)NC(=O)CNC(=O)[C@H](CCC(=O)O)NC(=O)[C@H](CC(C)C)NC(=O)[C@H](Cc1ccc(O)cc1)NC(=O)[C@H](CO)NC(=O)[C@H](CO)NC(=O)[C@@H](NC(=O)[C@H](CC(=O)O)NC(=O)[C@H](CO)NC(=O)[C@@H](NC(=O)[C@H](Cc1ccccc1)NC(=O)[C@@H](NC(=O)CNC(=O)[C@H](CC(C(F)(F)F)C(F)(F)F)NC(=O)[C@H](C)NC(=O)[C@@H](N)Cc1c[nH]cn1)[C@@H](C)O)[C@@H](C)O)C(C)C)C(=O)N[C@@H](C)C(=O)N[C@@H](Cc1c[nH]c2ccccc12)C(=O)N[C@@H](CC(C)C)C(=O)N[C@H](C(=O)N[C@@H](CCCCN)C(=O)NCC(=O)N[C@@H](CCCNC(=N)N)C(N)=O)C(C)C; target or system = GLP1R (Homo sapiens, UniProt P43220); test = agonist; quantity = EC50; value = 2 nM
Compound = CC(C)C[C@@H]1NC(=O)[C@H](Cc2ccc(O)cc2)NC(=O)[C@H](CO)NC(=O)[C@H](C)NC(=O)[C@@H](NC(=O)[C@@H](NC(=O)[C@H](CC(N)=O)NC(=O)[C@H](Cc2ccc(O)cc2)NC(=O)[C@@H](N)CCCCN)C(C)C)CSC1=O; target or system = Accessory gene regulator protein C (Staphylococcus epidermidis, UniProt O86861); quantity = EC50; value = 1020 nM
Compound = CC[C@H](C)[C@H](NC(=O)[C@]1(C)CCCC=CCCC[C@](C)(NC(=O)[C@H](CCC(=O)O)NC(=O)[C@H](CCCNC(=N)N)NC(=O)CNC(=O)[C@H](CO)NC(=O)[C@H](CC(C)C)NC(=O)[C@@H](N)CCCNC(=N)N)C(=O)N[C@@H]([C@@H](C)CC)C(=O)N[C@@H](CCCNC(=N)N)C(=O)N[C@@H](C)C(=O)N1)C(=O)N[C@@H](Cc1ccccc1)C(=O)N[C@H](C(=O)N[C@@H](CO)C(=O)NCC(=O)NCC(=O)N[C@@H](CO)C(=O)N[C@@H](CCCNC(=N)N)C(=O)N[C@@H](Cc1c[nH]c2ccccc12)C(=O)O)[C@@H](C)O; target or system = RXFP3 (Homo sapiens, UniProt Q9NSD7); test = cAMP, agonist; quantity = EC50; value = 42.6 nM
Compound = CC[C@H](C)[C@H](N)C(=O)N[C@@H](CC(N)=O)C(=O)N[C@H]1CSC(=O)[C@H](CC(C)C)NC(=O)[C@H](CC(C)C)NC(=O)[C@H](Cc2ccccc2)NC(=O)[C@H](CC(N)=O)NC1=O; target or system = Accessory gene regulator protein C (Staphylococcus aureus, UniProt O33590); quantity = EC50; value = 967 nM
Compound = CC[C@H](C)[C@H](NC(=O)[C@@H](N)CCC(=O)O)C(=O)N[C@@H](CCCNC(=N)N)C(=O)N[C@@H](CCC(N)=O)C(=O)N[C@H](C(=O)N[C@@H](Cc1c[nH]cn1)C(=O)N[C@@H](Cc1ccccc1)C(=O)N[C@@H](Cc1ccccc1)C(=O)N[C@@H](Cc1ccccc1)C(=O)N[C@@H](Cc1ccccc1)C(=O)N[C@@H](Cc1ccccc1)C(=O)N[C@@H](Cc1ccccc1)C(=O)N[C@@H](Cc1ccccc1)C(=O)N[C@@H](CCCCN)C(=O)N[C@@H](CCCNC(=N)N)C(=O)N[C@@H](CCCNC(=N)N)C(=O)O)[C@@H](C)O; target or system = histidine kinase ComD; test = reporter gene, agonist; system = Streptococcus pneumoniae, TIGR4 comX::lacZ; setting = 30 min, pH 7.3, 37 °C; quantity = EC50; value = > 10000 nM
Compound = Cc1cc(O)cc(C)c1CC(N)C(=O)NC1CCNc2c(Br)cc(Cc3ccccc3)cc21 (centres unmarked); target or system = Oprd1 (Rattus norvegicus, UniProt P33533); test = GTPγS binding, agonist, radiometric; setting = cell membranes; quantity = EC50; value = 36 nM
Compound = Cn1ccc(-c2ccc(Cn3cc(C(=O)N[C@H]4CCCC[C@@H]4O)c4c(F)cc(F)cc43)cn2)n1; target or system = Chrm1 (Rattus norvegicus, UniProt P08482); test = calcium signal, positive allosteric modulator; quantity = EC50; value = 191 nM

Excerpt of the above:
Compound = CC(C)C[C@@H]1NC(=O)[C@H](Cc2ccc(O)cc2)NC(=O)[C@H](CO)NC(=O)[C@H](C)NC(=O)[C@@H](NC(=O)[C@@H](NC(=O)[C@H](CC(N)=O)NC(=O)[C@H](Cc2ccc(O)cc2)NC(=O)[C@@H](N)CCCCN)C(C)C)CSC1=O; target or system = Accessory gene regulator protein C (Staphylococcus epidermidis, UniProt O86861); quantity = EC50; value = 1020 nM
